Published values gathered from unrelated publications.
Lines come from different studies, so protocols differ. Numbers after ± are the reported error.
GRM2: Metabotropic glutamate receptor 2 (GRM2, Homo sapiens, UniProt Q14416)
Sequence of UniProt Q14416 (whole entry, looked up): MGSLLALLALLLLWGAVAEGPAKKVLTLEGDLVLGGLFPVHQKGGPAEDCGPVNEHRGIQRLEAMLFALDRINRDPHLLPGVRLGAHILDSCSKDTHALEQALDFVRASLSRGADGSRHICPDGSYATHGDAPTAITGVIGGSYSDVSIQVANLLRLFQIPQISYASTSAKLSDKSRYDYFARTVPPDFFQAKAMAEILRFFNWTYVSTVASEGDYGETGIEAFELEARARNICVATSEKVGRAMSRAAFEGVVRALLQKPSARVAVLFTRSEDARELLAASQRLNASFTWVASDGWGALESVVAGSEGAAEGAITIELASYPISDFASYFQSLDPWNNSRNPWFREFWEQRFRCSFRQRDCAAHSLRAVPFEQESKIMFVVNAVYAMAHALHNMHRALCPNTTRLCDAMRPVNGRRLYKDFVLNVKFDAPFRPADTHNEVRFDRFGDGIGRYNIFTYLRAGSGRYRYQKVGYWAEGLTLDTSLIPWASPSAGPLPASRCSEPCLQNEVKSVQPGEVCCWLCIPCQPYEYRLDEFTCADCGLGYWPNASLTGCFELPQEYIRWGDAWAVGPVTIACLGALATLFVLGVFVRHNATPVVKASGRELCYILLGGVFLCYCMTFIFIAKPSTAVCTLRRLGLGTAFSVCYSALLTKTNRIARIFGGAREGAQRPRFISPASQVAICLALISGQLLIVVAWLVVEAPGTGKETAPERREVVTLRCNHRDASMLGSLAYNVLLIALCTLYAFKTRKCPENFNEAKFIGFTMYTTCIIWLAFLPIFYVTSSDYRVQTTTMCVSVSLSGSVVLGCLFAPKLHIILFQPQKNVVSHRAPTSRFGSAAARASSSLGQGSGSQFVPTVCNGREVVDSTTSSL
PLG: Plasminogen (PLG, Homo sapiens, UniProt P00747)
Sequence of UniProt P00747 (whole entry, looked up): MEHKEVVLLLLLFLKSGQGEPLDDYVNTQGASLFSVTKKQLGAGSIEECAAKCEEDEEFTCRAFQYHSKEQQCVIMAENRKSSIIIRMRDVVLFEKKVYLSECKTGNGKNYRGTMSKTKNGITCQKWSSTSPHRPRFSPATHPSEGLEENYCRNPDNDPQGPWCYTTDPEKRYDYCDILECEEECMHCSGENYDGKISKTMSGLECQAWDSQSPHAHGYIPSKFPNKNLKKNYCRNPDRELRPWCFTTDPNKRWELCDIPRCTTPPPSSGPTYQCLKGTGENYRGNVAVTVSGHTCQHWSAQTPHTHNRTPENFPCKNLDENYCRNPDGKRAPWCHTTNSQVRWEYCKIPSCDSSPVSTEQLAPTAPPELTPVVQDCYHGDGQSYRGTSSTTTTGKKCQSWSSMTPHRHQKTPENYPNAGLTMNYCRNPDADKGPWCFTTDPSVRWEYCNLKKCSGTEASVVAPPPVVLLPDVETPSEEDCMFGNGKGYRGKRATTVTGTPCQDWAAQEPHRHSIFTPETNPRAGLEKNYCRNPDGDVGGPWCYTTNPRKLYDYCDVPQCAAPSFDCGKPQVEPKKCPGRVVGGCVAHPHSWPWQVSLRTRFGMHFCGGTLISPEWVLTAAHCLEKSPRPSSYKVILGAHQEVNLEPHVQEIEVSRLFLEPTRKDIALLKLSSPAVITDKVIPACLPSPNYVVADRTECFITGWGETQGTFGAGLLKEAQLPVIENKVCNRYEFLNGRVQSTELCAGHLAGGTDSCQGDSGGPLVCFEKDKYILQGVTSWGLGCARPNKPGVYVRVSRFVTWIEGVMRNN
Sequence of UniProt Q9HC97 (whole entry, looked up): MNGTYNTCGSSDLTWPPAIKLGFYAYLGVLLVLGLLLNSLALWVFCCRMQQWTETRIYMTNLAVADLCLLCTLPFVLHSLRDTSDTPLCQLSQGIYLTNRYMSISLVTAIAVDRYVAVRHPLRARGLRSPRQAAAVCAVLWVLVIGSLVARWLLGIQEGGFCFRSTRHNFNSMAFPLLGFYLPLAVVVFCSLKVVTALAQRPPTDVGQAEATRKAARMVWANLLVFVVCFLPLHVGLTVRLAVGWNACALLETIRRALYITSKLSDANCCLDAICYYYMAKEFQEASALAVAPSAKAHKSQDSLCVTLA
Sequence of UniProt O75164 (whole entry, looked up): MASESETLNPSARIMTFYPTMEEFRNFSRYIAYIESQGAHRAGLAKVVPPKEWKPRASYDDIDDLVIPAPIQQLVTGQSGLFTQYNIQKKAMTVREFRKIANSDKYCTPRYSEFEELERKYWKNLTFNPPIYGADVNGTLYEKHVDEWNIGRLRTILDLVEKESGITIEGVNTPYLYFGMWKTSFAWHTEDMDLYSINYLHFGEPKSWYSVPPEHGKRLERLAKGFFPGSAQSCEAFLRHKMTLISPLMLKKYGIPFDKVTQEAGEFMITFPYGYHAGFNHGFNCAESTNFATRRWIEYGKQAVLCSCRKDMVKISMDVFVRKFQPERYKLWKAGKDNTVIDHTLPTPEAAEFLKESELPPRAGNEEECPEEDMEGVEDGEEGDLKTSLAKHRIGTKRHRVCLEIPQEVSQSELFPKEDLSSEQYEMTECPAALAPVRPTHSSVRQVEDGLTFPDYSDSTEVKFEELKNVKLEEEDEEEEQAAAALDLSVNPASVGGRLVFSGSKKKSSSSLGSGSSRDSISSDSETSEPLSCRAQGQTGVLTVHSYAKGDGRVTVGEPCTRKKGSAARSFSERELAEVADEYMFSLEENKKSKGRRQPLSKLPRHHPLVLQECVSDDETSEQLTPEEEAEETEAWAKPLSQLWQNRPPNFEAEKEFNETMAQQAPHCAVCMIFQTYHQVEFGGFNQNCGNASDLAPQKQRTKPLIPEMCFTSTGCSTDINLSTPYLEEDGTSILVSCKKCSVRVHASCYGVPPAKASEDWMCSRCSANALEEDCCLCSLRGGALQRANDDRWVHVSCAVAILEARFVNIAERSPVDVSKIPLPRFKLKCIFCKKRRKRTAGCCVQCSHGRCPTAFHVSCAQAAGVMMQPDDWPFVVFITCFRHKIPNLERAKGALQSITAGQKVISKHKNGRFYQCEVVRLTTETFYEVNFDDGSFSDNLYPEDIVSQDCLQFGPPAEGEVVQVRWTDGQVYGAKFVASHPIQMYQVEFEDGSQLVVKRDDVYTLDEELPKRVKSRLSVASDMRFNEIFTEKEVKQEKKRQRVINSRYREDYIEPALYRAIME

| SMILES | target or system | test | system | conditions | scale | measurement | result |
| --- | --- | --- | --- | --- | --- | --- | --- |
| O=[N+]([O-])NC(=S)NN=Cc1ccc(F)cc1 | Leishmania tropica | parasite growth, MTT |  | 72 h, promastigote |  | IC50 | 186 µM |
| O=C(O)CCCCC(=O)OCn1cc(F)c(=O)[nH]c1=O | Caco-2 butyrate-induced |  |  | together with: MCT1 inhibitor 2.5 mM | baseline: without inhibitor | fold decrease in uptake | 5.8 fold |
| CCCCn1ccn2c(-c3ccc(NCc4ccc(OC)nc4)cc3)c(C)nc2c1=O | GRM2 | GTPγS binding, positive allosteric modulator |  | together with: EC20 glutamate |  | EC50 | 0.073 µM |
| CCCCc1oc2ccccc2c1C(=O)c1cc(I)c(OCC[N+](C)(C)C)c(I)c1 | Lysine-specific demethylase 4A, double tudor domain (KDM4A, Homo sapiens, UniProt O75164) | fluorescence polarization |  |  |  | IC50 | 34 ± 14 µM |
| COCCOCCOCCOCCOCCOCCOCCOCCOCCOCCOCCOCCOCCC(=O)NCc1ccc(C(=N)N)cc1 | PLG | enzyme activity, inhibitor, absorbance |  | pH 7.4 |  | Ki | 360 µM |
| COC(=O)c1cnn(-c2ccc(F)cc2F)c1C=NNC(=S)NC(C)(C)C | GPR35 (Homo sapiens, UniProt Q9HC97) | dynamic mass redistribution, antagonist | HT-29 | together with: 0.5 mM dihydrocaffeic acid |  | IC50 | 3.92 ± 0.31 µM |
| COCCOCCOCCOCCOCCOCCOCCOCCOCCOCCOCCOCCOCCOCCOCCOCCOCCOCCOCCOCCOCCOCCOCCOCCOCCC(=O)NCc1ccc(C(=N)N)cc1 | PLG | enzyme activity, inhibitor, absorbance |  | pH 7.4 |  | Ki | 521 µM |
| CCCCn1ccn2c(-c3ccc(OCC4CC4)c(Cl)c3)nc(C)c2c1=O | GRM2 | GTPγS binding, positive allosteric modulator |  | together with: EC20 glutamate | baseline: control glutamate response | Emax | 151 ± 8% |

Excerpt of the above:
| SMILES | target or system | test | system | conditions | scale | measurement | result |
| --- | --- | --- | --- | --- | --- | --- | --- |
| COCCOCCOCCOCCOCCOCCOCCOCCOCCOCCOCCOCCOCCOCCOCCOCCOCCOCCOCCOCCOCCOCCOCCOCCOCCC(=O)NCc1ccc(C(=N)N)cc1 | PLG | enzyme activity, inhibitor, absorbance |  | pH 7.4 |  | Ki | 521 µM |
